Published values pooled from the literature.
Protocols differ between the studies behind these lines. ± marks the error that the study gave.
Organism: Leishmania infantum

| Compound | test | system | setting | how to read | endpoint | result |
| --- | --- | --- | --- | --- | --- | --- |
| COc1ccc(S(=O)(=O)Nc2cc(C#N)ccc2OS(=O)(=O)c2ccc(OC)cc2)cc1 | – | U-937 macrophages, intracellular amastigotes | – | reference: IC50 HeLa over IC50 amastigotes | selectivity index | 3.45 |
| CCOC(=O)c1c(C)[nH]c(-c2c[nH]c3ccccc23)c1C#N | parasite growth | – | 20 µM, 72 h, promastigote | – | inhibition | -46.6% |
| Cc1ncnc2c1c(C(C)C)cn2[C@@H]1O[C@H](CO)[C@@H](O)[C@H]1O | parasite growth, imaging | mouse Macrophage | 5 days, intracellular, amastigote | – | EC50 | 22.6 µM |
| CCCCCCCCCCCCCCCCOP(=O)([O-])OCC[N+](C)(C)C | parasite growth | – | 72 h, promastigote | – | EC50 | 5.9 µM |
| C[C@@H]1[C@H](O)[C@@H](C)/C=C/C=C/C=C/C=C/C=C/C=C/C=C/[C@H](O[C@@H]2O[C@H](C)[C@@H](O)[C@H](N)[C@@H]2O)C[C@@H]2O[C@](O)(C[C@@H](O)C[C@@H](O)[C@H](O)CC[C@@H](O)C[C@@H](O)CC(=O)O[C@H]1C)C[C@H](O)[C@H]2C(=O)O | viability, MTS | human clinical isolate promastigote | 72 h | – | IC50 | 0.084 µM |
| Cc1ncnc2c1c(C1CCCC1)cn2[C@@H]1O[C@H](CO)[C@@H](O)[C@H]1O | parasite growth, imaging | mouse Macrophage | 5 days, intracellular, amastigote | – | EC50 | > 64 µM |
| C[C@@H]1[C@H](O)[C@@H](C)/C=C/C=C/C=C/C=C/C=C/C=C/C=C/[C@H](O[C@@H]2O[C@H](C)[C@@H](O)[C@H](N)[C@@H]2O)C[C@@H]2O[C@](O)(C[C@@H](O)C[C@@H](O)[C@H](O)CC[C@@H](O)C[C@@H](O)CC(=O)O[C@H]1C)C[C@H](O)[C@H]2C(=O)O | – | bone marrow-derived macrophages, intracellular amastigotes | 24 h | – | IC50 | 0.22 ± 0.22 µM |
| CCc1cn([C@@H]2O[C@H](CO)[C@@H](O)[C@H]2O)c2ncncc12 | parasite growth, imaging | mouse Macrophage | 5 days, intracellular, amastigote | – | EC50 | > 64 µM |
| CCCCCCCCNCc1ccc2c(c1)C(=O)CC(C)(C)O2 | – | bone marrow-derived macrophages, intracellular amastigotes | 24 h | – | IC50 | 24.6 ± 0.4 µM |
| CCCCCCCCCCCCCCCCOP(=O)([O-])OCC[N+](C)(C)C | viability, MTS | human clinical isolate promastigote | 72 h | – | IC50 | 1.2 µM |
| Cc1ncnc2c1c(CCC(C)C)cn2[C@@H]1O[C@H](CO)[C@@H](O)[C@H]1O | parasite growth, imaging | mouse Macrophage | 5 days, intracellular, amastigote | – | EC50 | > 64 µM |
| CC1(C)CC(=O)c2cc(CNC(=O)/C=C/c3cccs3)ccc2N1 | – | bone marrow-derived macrophages, intracellular amastigotes | 24 h | – | IC50 | > 10 µM |
| COC(=O)c1c(C)ncn1CC(c1c[nH]c2cc(Br)ccc12)c1c[nH]c2cc(Br)ccc12 | viability, MTS | human clinical isolate promastigote | 72 h | – | IC50 | 7.5 µM |
| Cc1ccc(Cc2ccc3c(c2)C(=O)CC(C)(C)O3)cc1 | – | bone marrow-derived macrophages, intracellular amastigotes | 24 h | – | IC50 | 5 to 10 µM |
| COc1cc([C@@H]2c3cc4c(cc3[C@@H](O)[C@H]3COC(=O)[C@H]23)OCO4)cc(OC)c1OC | parasite growth | mouse Splenocyte | 48 h, intracellular, amastigote | – | EC50 | > 100 µM |
| Cc1cn(CC(c2cn(C)c3ccccc23)c2cn(C)c3ccccc23)nn1 | viability, MTS | human clinical isolate promastigote | 72 h | – | IC50 | 7.4 µM |
| Cc1cn([C@@H]2O[C@H](CO)[C@@H](O)[C@H]2O)c2ncnc(C)c12 | parasite growth, imaging | mouse Macrophage | 5 days, intracellular, amastigote | – | EC50 | 15.3 µM |

For quick reference, copied from above:
| Compound | test | system | setting | how to read | endpoint | result |
| --- | --- | --- | --- | --- | --- | --- |
| COc1ccc(S(=O)(=O)Nc2cc(C#N)ccc2OS(=O)(=O)c2ccc(OC)cc2)cc1 | – | U-937 macrophages, intracellular amastigotes | – | reference: IC50 HeLa over IC50 amastigotes | selectivity index | 3.45 |
| CCOC(=O)c1c(C)[nH]c(-c2c[nH]c3ccccc23)c1C#N | parasite growth | – | 20 µM, 72 h, promastigote | – | inhibition | -46.6% |
